Experimental data pooled from the literature.
Compare with care: the assays were run in different laboratories.
ABL1 non-phosphorylated: Tyrosine-protein kinase ABL1, non-phosphorylated (ABL1, Homo sapiens, UniProt P00519)
UniProt P06493, sequence (whole entry, looked up): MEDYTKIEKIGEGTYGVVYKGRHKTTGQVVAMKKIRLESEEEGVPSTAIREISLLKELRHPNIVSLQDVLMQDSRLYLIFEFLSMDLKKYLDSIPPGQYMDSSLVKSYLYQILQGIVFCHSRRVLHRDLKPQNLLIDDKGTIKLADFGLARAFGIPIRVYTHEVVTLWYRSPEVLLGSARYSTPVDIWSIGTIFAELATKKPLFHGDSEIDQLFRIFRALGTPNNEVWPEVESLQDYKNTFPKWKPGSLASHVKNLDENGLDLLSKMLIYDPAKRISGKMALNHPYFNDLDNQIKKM

Structure (SMILES) | target | test | conditions | endpoint | value
Cc1cc([C@@H](C)Nc2ccccc2C(=O)O)c2nc(N3CCC(F)(F)CC3)c(C#N)c(=O)n2c1 | ABL1 non-phosphorylated | binding, competition with immobilised ligand | 10 µM | remaining binding | 80%
CCCCC(=O)Nc1ccc(-c2ccc3ncn(CCC)c(=O)c3c2)cn1 | Tyrosine-protein kinase ABL1, non-phosphorylated (ABL1, Homo sapiens, UniProt P00519, T315I) | binding, competition with immobilised ligand | 0.5 µM | remaining binding | 96%
COc1cc(-c2cc(-c3ccc(N4CCNCC4)cc3)cnc2N)cc(OC)c1OC | ABL1 (Homo sapiens, UniProt P00519, M351T) | enzyme activity, inhibitor | 1 µM | inhibition | 96%
COc1cc(-c2cncc3c2CN(C)Cc2cc(N4CCNCC4)ccc2-3)cc(OC)c1OC | ABL1 (Homo sapiens, UniProt P00519, T315I) | enzyme activity, inhibitor | 1 µM | remaining activity | 109%
CN(c1nccc(-c2cnn3ncccc23)n1)C1CC1 | ABL1 (Homo sapiens, UniProt P00519, H396P) | binding | 1 µM | remaining binding | 99%
Nc1ncnc2occ(-c3ccc(NC(=O)Nc4cc(C(F)(F)F)ccc4F)cc3)c12 | Tyrosine-protein kinase ABL1, non-phosphorylated (ABL1, Homo sapiens, UniProt P00519, Q252H) | cell-free assay, inhibitor | 20 µM | remaining signal | 0%
C=CC(=O)N1CCC(COCC(=O)N2CCN(c3nc(-c4cnc(N)nc4C(F)F)nc(N4CCOC[C@@H]4C)n3)CC2)CC1 | Tyrosine-protein kinase ABL1, phosphorylated (ABL1, Homo sapiens, UniProt P00519, M351T) | binding, competition with immobilised ligand | 1 µM | remaining binding | 78%
C1=C/COCc2cc(ccc2OCCN2CCCC2)Nc2nccc(n2)-c2cccc(c2)COC/1 | ABL1 non-phosphorylated | binding | 0.1 µM | remaining binding | 23%
CNc1ncc2c(/C=C/C(=O)N3CCC(OC)CC3)nn(Cc3cccc(C(F)(F)F)c3)c2n1 | Cyclin-dependent kinase 1, with cyclin B1 (CDK1, Homo sapiens, UniProt P06493) | enzyme activity, inhibitor, radiometric | 1 µM | remaining activity | 86%

Some of these lines once more:
Structure (SMILES) | target | test | conditions | endpoint | value
COc1cc(-c2cncc3c2CN(C)Cc2cc(N4CCNCC4)ccc2-3)cc(OC)c1OC | ABL1 (Homo sapiens, UniProt P00519, T315I) | enzyme activity, inhibitor | 1 µM | remaining activity | 109%
